Assay results of several laboratories.
Parts stem from different laboratories: compare values within a part only.

Set 1
Target: Histone acetyltransferase KAT6A, both winged helices, GST fusion (KAT6A, Homo sapiens, UniProt Q92794, residues 1-181)
Technique: protein binding microarray
Molecule type: double-stranded DNA, one strand shown
Matrix: in vitro
Concentration: not given
Setting: 8-mer, flanks averaged, mean of 2 arrays, mostly near background
Baseline: not given
Direction: higher = stronger binding
Target sequence (chain): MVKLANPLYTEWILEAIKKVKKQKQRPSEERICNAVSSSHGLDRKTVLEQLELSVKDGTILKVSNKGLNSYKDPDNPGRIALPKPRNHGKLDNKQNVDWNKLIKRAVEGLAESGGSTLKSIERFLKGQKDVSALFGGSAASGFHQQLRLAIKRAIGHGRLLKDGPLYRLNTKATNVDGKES
| Sequence | E-score |
| --- | --- |
| ACTCCCAT | -0.3 |
| AAACCCGC | 0.231 |
| GAGTGTGC | -0.0806 |
| AATCATAG | -0.141 |
| GAGACTAA | -0.0758 |
| CCTCTCAC | -0.123 |
| GCTGTCAC | -0.00528 |
| AGAGTTCA | -0.268 |
| GGCGAGAC | 0.041 |
| GAACATCA | -0.0085 |
| CAAATACA | -0.139 |
| TCGCTGAA | -0.0176 |
| ATAAAAAG | -0.177 |
| AAGTGTAC | -0.0774 |
| ACGCGATG | 0.173 |
| CAGAGCCG | 0.133 |
| ATGACACA | -0.0353 |

Set 2
Target: Ras GTPase-activating protein-binding protein 1, C-terminal RGG region (G3BP1, Homo sapiens, UniProt Q13283)
UniProt Q13283, sequence (whole entry, looked up): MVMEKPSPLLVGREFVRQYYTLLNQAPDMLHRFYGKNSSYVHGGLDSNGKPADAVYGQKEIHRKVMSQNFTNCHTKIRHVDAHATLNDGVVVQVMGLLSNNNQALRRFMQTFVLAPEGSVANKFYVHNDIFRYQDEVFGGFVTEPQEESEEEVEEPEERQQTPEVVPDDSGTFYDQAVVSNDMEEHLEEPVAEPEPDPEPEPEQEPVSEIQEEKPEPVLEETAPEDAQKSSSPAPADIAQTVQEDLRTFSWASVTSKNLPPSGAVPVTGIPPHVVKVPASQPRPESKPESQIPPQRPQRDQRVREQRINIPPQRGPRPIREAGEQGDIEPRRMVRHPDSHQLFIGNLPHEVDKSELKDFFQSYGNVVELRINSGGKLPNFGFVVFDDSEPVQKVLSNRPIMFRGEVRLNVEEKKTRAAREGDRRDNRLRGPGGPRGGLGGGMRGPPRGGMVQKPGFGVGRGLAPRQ
Technique: RNA Bind-n-Seq
Molecule type: RNA
Matrix: in vitro
Concentration: 1 µM
Setting: whole 134-nt RNA, ends assumed
Together with: 150 mM KCl
Baseline: input library
Direction: higher = stronger binding
Shared flanks, not repeated: GGGAGUUCUACAGUCCGACGAUC … UGGAAUUCUCGGGUGUCAAGG
| Sequence | log2 enrichment |
| --- | --- |
| UUUGGCAAUGAGAUCUAAACCAGACAAAGACCUCCUUAUGGAAGAAGAUGACAUGGCCUUGGCAAAUGUAGUCAUGCAGGAAGCUCAGAA | -1.55 |
| UCAAGUCCUGUGCUACACAUCGUAUGUACCGAAUCGGCCCGGCCCGGGCCCGGGGAAAGUAUUAUGUUACGCCGUUCGGAUCUGCACUUC | -1.72 |
| UGGCCCGGGUGGCAUGCGGGGAGGAAGAGGUGGCCUCAUGGAUCGUGGUGGUCCCGGUGGAAUGUUCAGAGGUGGCCGUGGUGGAGACAG | 2.12 |
| UCAAGUCCUGUGCUACACAUCGUAUGUACCGAAUCGGGUUGGGGUUGGGUUGGGAAAGUAUUAUGUUACGCCGUUCGGAUCUGCACUUCC | 2.14 |
| UAACUUUAGAGGAGGAUCUGAUGGAUAUGGCAGUGGACGUGGAUUUGGGGAUGGCUAUAAUGGGUAUGGAGGAGGACCUGCAGGUGGCAA | -1.08 |
| CAAGUCCUGUGCUACACAUCGUAUGUACCGAAUCGGAAAAAAAGGUGGAAAAAGGAAAGUAUUAUGUUACGCCGUUCGGAUCUGCACUUC | -1.71 |
| AAGUCCUGUGCUACACAUCGUAUGUACCGAAUCGGCCCCCGGCCCCCGGCCCCCGGGAAAGUAUUAUGUUACGCCGUUCGGAUCUGCACU | -1.77 |
| GUCCUGUGCUACACAUCGUAUGUACCGAAUCGGGGAAAAAAGGAAAAAAGGAAAAAAGGAAAGUAUUAUGUUACGCCGUUCGGAUCUGCA | -1.57 |
| CUGUGCUACACAUCGUAUGUACCGAAUCGGCCCCCCCGGGCCCCCCCGGGGCCCCCCCGGGAAAGUAUUAUGUUACGCCGUUCGGAUCUG | -1.95 |
| CUGUGCUACACAUCGUAUGUACCGAAUCGGGGAAAAAAAGGGGAAAAAAAGGGGAAAGGGGAAAGUAUUAUGUUACGCCGUUCGGAUCUG | 0.0271 |

Set 3
Target: Sal-like protein 4, full length isoform A (SALL4, Homo sapiens, UniProt Q9UJQ4, residues 1-1053)
UniProt Q9UJQ4, sequence (whole entry, looked up): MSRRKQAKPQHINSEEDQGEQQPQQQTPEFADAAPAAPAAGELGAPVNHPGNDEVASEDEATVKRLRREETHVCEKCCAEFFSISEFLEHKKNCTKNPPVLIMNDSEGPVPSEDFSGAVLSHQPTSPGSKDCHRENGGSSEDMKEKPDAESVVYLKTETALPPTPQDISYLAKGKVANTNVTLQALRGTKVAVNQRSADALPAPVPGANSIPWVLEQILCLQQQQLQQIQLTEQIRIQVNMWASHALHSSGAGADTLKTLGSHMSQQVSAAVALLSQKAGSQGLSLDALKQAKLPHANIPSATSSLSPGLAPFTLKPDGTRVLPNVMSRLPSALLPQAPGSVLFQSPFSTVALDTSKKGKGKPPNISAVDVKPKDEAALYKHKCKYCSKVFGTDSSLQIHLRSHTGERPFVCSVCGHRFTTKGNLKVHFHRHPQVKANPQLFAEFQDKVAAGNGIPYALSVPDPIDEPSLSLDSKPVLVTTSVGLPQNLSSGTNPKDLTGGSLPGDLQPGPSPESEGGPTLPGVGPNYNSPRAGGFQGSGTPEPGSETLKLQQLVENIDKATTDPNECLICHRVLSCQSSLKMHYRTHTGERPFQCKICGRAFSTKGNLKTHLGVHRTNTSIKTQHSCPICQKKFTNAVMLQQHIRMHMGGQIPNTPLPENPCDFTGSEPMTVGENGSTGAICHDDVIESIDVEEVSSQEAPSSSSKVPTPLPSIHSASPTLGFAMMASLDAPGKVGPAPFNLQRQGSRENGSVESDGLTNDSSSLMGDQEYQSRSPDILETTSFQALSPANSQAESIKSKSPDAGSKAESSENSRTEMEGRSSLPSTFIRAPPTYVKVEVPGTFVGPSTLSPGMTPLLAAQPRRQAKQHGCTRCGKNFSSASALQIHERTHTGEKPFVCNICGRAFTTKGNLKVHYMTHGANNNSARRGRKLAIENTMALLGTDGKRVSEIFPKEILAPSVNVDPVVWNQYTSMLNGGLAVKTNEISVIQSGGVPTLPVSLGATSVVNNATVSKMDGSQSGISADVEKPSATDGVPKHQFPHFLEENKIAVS
Technique: universal PBM
Molecule type: double-stranded DNA, one strand shown
Matrix: in vitro
Concentration: 600 nM
Setting: 8-mer, flanks averaged, mean of replicates
Direction: higher = stronger binding
| Sequence | E-score |
| --- | --- |
| CGTCCCCC | -0.277 |
| CACGGAGG | -0.165 |
| GGAGGGGA | -0.0857 |
| GGATCGCC | -0.313 |
| CACTGAGG | -0.152 |
| ATCGCTTG | -0.0339 |
| ACCCTGAT | -0.0611 |
| CGGTGAGC | -0.305 |
| CCCGGCAG | -0.354 |
| GGGCGTAC | -0.173 |
| CCTACAAG | 0.0147 |
| TCGCAGAA | 0.00069 |
| CTACGCTC | -0.0906 |
| AGAGCCAG | -0.264 |
| CCTTGCTA | 0.0663 |
| AGGGATAT | 0.202 |
| GGAATAAC | 0.0505 |
| CTATACCA | 0.211 |
| CAGATGGA | 0.0351 |
| CCGTCTAC | -0.08 |
| ATAGTTAA | 0.326 |

Set 4
Target: Interferon regulatory factor 7, full length, phosphomimetic (IRF7, Homo sapiens, UniProt Q92985, residues 1-503, S471D/S472D/S475D/S476D/S477D/S483D/S484D/S487D)
Technique: protein-binding microarray
Molecule type: double-stranded DNA, one strand shown
Matrix: in vitro
Concentration: 2200 nM top
Setting: 60-bp whole probe
Together with: salmon DNA 0.4 mg/ml
Baseline: random background probes
Direction: higher = stronger binding
Shared flanks, not repeated: GCCTAGCAC … GTCTTGATTCGCTTGACGCTGCTG
Residues (chain): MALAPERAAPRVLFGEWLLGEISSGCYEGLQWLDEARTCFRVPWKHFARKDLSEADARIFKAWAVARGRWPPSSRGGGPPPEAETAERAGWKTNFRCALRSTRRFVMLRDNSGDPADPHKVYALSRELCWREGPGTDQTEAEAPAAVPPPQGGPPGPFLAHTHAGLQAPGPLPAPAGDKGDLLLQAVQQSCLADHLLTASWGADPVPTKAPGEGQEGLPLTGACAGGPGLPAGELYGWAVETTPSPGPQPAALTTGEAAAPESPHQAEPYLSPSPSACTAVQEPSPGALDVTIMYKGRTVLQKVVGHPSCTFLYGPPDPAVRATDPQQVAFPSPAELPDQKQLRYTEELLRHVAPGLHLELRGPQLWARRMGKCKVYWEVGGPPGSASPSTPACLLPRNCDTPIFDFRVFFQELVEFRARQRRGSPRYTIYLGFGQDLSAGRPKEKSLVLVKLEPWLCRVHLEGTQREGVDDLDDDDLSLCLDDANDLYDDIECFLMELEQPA
| Sequence | fitted relative affinity [z-score] |
| --- | --- |
| GACGGCTTCGGACTGGGGACGTGCTAG | -0.623 |
| TTAGAACTGAGTTACGATTAGTGCTAG | -0.447 |
| CATCGTAAGCAAAAATGATTGTGCTAG | -0.275 |
| GACGGTATCGGGACTGGGGTCGTGCTA | -0.393 |
| GACGATATCAGTTCCGAGACGTGCTAG | 0.833 |
| TGCATTCCCTTTCTCAACCTGTGCTAG | 3.24 |
| TCAGAATTGAAAATTAGTACTGTGCTA | -0.938 |
| TTAGGATTGGGGTTTCGGTTAGTGCTA | 3.44 |
| TTAGGACTGGGGTATCGCTTAGTGCTA | -0.52 |
| GTCGATATCAGTCTCGAGACGTGCTAG | 0.827 |
| GACAGACTGGACTTTCGGGACGTGCTA | 2.48 |
| GACGGAGTGCTACTGCTGACGTGCTAG | 0.276 |
| TTAGGACTGGACTAGCGGTTAGTGCTA | -0.868 |
| TTAGGACTTGGGACTGGGTTAGTGCTA | -0.926 |
| GACGGTCTCTTTCTCCTGACGTGCTAG | 1.35 |
| TTAGGTAGCGGGTTTCGGTTAGTGCTA | 2.9 |

Excerpt of the above (set 4):
| Sequence | fitted relative affinity [z-score] |
| --- | --- |
| TGCATTCCCTTTCTCAACCTGTGCTAG | 3.24 |
| TTAGGACTTGGGACTGGGTTAGTGCTA | -0.926 |
| TCAGAATTGAAAATTAGTACTGTGCTA | -0.938 |
| GACGGTATCGGGACTGGGGTCGTGCTA | -0.393 |
| GACGATATCAGTTCCGAGACGTGCTAG | 0.833 |
